Measurements from different studies.
Compare with care: the assays were run in different laboratories. ± marks the error that the study gave.
Cell line: NCI-H460

C[C@H]1[C@H](C)CC[C@]2(C)CC[C@]3(C)C(=CC(=O)[C@@H]4[C@@]5(C)CC[C@@H](O)[C@](C)(C(=O)NCCNC(=O)C6CC6)[C@@H]5CC[C@]43C)[C@H]12
IC50 (cell growth or viability, MTT; 48 h): 28.1 µM

CCC1=C(CC)C2=[N+]3C1=Cc1c(CC)c(CC)c4[n]1[Ir-3]31([n+]3ccccc3)([n+]3ccccc3)[n]3c(c(CC)c(CC)c3=CC3=[N+]1C(=C4)C(CC)=C3CC)=C2.Cl
IC50 (cytotoxicity; 1 h, with: visible light 2.8 mW/cm2): 0.005 ± 0.001 µM

Cc1cc2nc(-c3cc4ccccc4nc3Cl)[nH]c2cc1C
IC50 (cell growth or viability, MTT; 48 h): 14 µM

O=C(NCCCNc1n[n+]([O-])c2ccccc2[n+]1[O-])C(F)(F)F
IC50 (cytotoxicity, MTT; 10% FBS medium; 6 h + 18 h, hypoxia 3% O2): 55.9 ± 7.4 µM

C=C1C2CCC3(CCC4C5(C)CCCC4(CN(CCO)C5)C3C2)C1O (centres unmarked)
IC50 (cell growth or viability, MTT): 13.6 µM

C[C@H]1[C@H](C)CC[C@]2(C)CC[C@]3(C)C(=CC(=O)[C@@H]4[C@@]5(C)CC[C@@H](O)[C@](C)(C(=O)NCCNC(=O)c6ccccc6)[C@@H]5CC[C@]43C)[C@H]12
IC50 (cell growth or viability, MTT; 48 h): 14.3 µM

COCC12CN(C)C3C4C(OC)C1C3(C(OC)CC2O)C1(O)CC2(O)C(OC)C(O)C4(O)C1C2OC(=O)c1ccccc1 (centres unmarked)
IC50 (cell growth or viability, MTT): 13.5 µM

Cc1ccc2nc(Cl)c(-c3nc4cc(Cl)ccc4[nH]3)cc2c1
IC50 (cell growth or viability, MTT; 48 h): > 100 µM

N#Cc1c(-c2ccc(Cl)cc2)cc(-c2cccc3ccccc23)nc1NNC(=O)Cc1ccccc1
IC50 (cell growth or viability, MTT; 72 h): 0.025 µM

O=C(O)Cc1ccccc1Nc1c(Cl)cccc1Cl.O=C(O)Cc1ccccc1Nc1c(Cl)cccc1Cl.c1cnc2c(c1)ccc1cccnc12.c1cnc2c(c1)ccc1cccnc12
IC50 (cytotoxicity, MTT): 1.69 ± 0.02 µM

O=C(NCCCCCCCNc1n[n+]([O-])c2ccccc2[n+]1[O-])C(F)(F)F
IC50 (cytotoxicity, MTT; 24 h, normoxia 20% O2): 88.7 ± 26.4 µM

Clc1nc2ccccc2cc1-c1nc2cc(Br)ccc2[nH]1
IC50 (cell growth or viability, MTT; 48 h): 31.4 µM

CC(=O)O[C@@H]1CC[C@@]2(C)[C@@H](CC[C@]3(C)[C@@H]2C(=O)C=C2[C@@H]4[C@@H](C)[C@H](C)CC[C@]4(C)CC[C@]23C)[C@@]1(C)C(=O)O
IC50 (cell growth or viability, MTT; 48 h): 27.2 µM

Cc1ccc(C(=O)C2Sc3nnc(-n4nc(C)cc4C)n3NC2c2ccc(Cl)cc2)cc1 (racemic)
IC50 (cell growth or viability, imaging; 72 h): > 100 µM

O=c1[nH]c2ccccc2nc1/C=C/c1ccc2ccccc2n1
IC50 (cell growth or viability, MTT; 72 h): > 50 µM

COc1ccc(-c2nnc(-c3ccccn3)[nH]2)cc1OC.COc1ccc(-c2nnc(-c3ccccn3)[nH]2)cc1OC.[Cu+2].[O-][Cl+3]([O-])([O-])[O-].[O-][Cl+3]([O-])([O-])[O-]
IC50 (cell growth or viability, MTT; 24 h): 92.8 µM

Clc1nc2cc3c(cc2cc1-c1nc2ccccc2[nH]1)OCO3
IC50 (cell growth or viability, MTT; 48 h): > 100 µM

Nc1ccccc1NC(=O)c1ccc(Nc2nccc(-c3cn(C4CCCCC4)nn3)n2)cc1
IC50 (cell growth or viability, SRB; 72 h): 2.69 µM

COCC12CCC(OC)C34C5CC6(O)C(O)C5C(O)(C(O)C6OC)C(CC13)C4N(C)C2 (centres unmarked)
IC50 (cell growth or viability, MTT): 22.8 µM

CCCC(CCC)C(=O)NCCNC(=O)[C@]1(C)[C@@H]2CC[C@]3(C)[C@H](C(=O)C=C4[C@@H]5[C@@H](C)[C@H](C)CC[C@]5(C)CC[C@]43C)[C@@]2(C)CC[C@H]1OC(C)=O
IC50 (cell growth or viability, MTT; 48 h): > 30 µM

CN1CCN(c2ccc(Nc3ncc(F)c(-c4cn(C5CCCCC5)nn4)n3)cc2)CC1
IC50 (cell growth or viability, SRB; 72 h): 7.35 µM

CCNC(=O)OCc1c(COC(=O)NCC)c(-c2ccc(OC)cc2)n2c1Cc1ccccc1-2
IC50 (cell growth or viability, resazurin; 72 h): 17.5 µM

Clc1ccc2[nH]c(-c3cc4cc5c(cc4nc3Cl)OCO5)nc2c1
IC50 (cell growth or viability, MTT; 48 h): > 100 µM

CC(=O)O[C@@H]1CC[C@@]2(C)[C@@H](CC[C@]3(C)[C@@H]2C(=O)C=C2[C@@H]4[C@@H](C)[C@H](C)CC[C@]4(C)CC[C@]23C)[C@@]1(C)C(=O)NCCNC(=O)CCCCCBr
IC50 (cell growth or viability, MTT; 48 h): 9.31 µM

COc1ccc2nc(Cl)c(-c3nc4cc(Br)ccc4[nH]3)cc2c1
IC50 (cell growth or viability, MTT; 48 h): 26.8 µM

CC(=O)O[C@@H]1CC[C@@]2(C)[C@@H](CC[C@]3(C)[C@@H]2C(=O)C=C2[C@@H]4[C@@H](C)[C@H](C)CC[C@]4(C)CC[C@]23C)[C@@]1(C)C(=O)NCCNC(=O)CCCCCCC[P+](c1ccccc1)(c1ccccc1)c1ccccc1
IC50 (cell growth or viability, MTT; 48 h): > 30 µM

Cn1[c]([Ir-3]234([NH3+])[n]5c6ccc5C(c5c(F)c(F)c(F)c(F)c5F)=C5C=CC(=[N+]52)C(c2c(F)c(F)c(F)c(F)c2F)=c2ccc([n]23)=C(c2c(F)c(F)c(F)c(F)c2F)C2=[N+]4C(=C6c3c(F)c(F)c(F)c(F)c3F)C=C2)[n+](C)c2ccccc21.F[P-](F)(F)(F)(F)F
IC50 (cell growth or viability; dark): 0.46 µM

CC(=O)O[C@@H]1CC[C@@]2(C)[C@@H](CC[C@]3(C)[C@@H]2C(=O)C=C2[C@@H]4[C@@H](C)[C@H](C)CC[C@]4(C)CC[C@]23C)[C@@]1(C)C(=O)NCCNC(=O)CCCC[P+](c1ccccc1)(c1ccccc1)c1ccccc1
IC50 (cell growth or viability, MTT; 48 h): 14.1 µM

CC(C)Cn1cc(-c2ccnc(Nc3ccc(N4CCN(CCCCCCC(=O)NO)CC4)cc3)n2)nn1
IC50 (cell growth or viability, SRB; 72 h): 4.86 µM
